Measured values from different studies.
Every numbered part comes from another study and shows a few of its results, in no order. Changes are numbered by the printed parent chain.

Sample 1 — effect on: binding; technique: phage display NGS; molecule type: peptide; tested at: concentration not given; reference: input library
Target: UDP-N-acetylglucosamine--peptide N-acetylglucosaminyltransferase 110 kDa subunit (OGT, Homo sapiens, UniProt O15294)
Residues (O15294 1-1046): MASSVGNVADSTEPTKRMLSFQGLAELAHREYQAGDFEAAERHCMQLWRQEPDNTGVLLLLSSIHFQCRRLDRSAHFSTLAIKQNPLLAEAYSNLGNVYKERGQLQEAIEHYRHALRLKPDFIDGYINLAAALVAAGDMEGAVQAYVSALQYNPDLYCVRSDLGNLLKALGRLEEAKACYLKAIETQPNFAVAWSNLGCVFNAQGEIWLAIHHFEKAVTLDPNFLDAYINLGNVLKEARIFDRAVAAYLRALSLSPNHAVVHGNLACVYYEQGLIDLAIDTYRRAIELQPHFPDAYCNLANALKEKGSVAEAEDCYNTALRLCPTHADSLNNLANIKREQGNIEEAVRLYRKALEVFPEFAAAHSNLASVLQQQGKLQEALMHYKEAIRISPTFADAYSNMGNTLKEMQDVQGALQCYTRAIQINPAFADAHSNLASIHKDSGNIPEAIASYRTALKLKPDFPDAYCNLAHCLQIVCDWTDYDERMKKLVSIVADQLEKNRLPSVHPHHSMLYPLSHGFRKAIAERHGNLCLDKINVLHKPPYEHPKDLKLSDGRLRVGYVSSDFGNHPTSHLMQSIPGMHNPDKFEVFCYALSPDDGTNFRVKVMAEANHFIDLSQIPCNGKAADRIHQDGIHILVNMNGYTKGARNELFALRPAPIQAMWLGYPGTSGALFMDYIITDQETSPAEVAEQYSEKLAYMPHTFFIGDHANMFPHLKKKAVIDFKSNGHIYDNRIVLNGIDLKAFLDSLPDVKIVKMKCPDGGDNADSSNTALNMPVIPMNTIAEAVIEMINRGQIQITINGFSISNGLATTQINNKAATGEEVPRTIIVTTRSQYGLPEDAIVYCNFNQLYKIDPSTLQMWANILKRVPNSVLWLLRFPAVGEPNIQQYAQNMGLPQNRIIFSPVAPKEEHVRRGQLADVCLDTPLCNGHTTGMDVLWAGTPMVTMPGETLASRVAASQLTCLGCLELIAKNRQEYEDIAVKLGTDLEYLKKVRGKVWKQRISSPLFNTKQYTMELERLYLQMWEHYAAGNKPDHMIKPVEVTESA
| Sequence | enrichment fold change |
| --- | --- |
| AHAIHPDLHQYHSHQ | 3.03 |
| QGDYMPFYQLRSKIT | 6.19 |
| QRVQHSHHYMHQIAE | 10.1 |
| HAGTIQPVYQISYVK | 5.58 |
| IHAGLEPKYQISYTY | 3.23 |
| HWFPTHTHYFMRHTS | 9.59 |
| DSWFHAFAHHGHNTP | 6.32 |
| HVSHTHPYQSQDHQH | 4.15 |

Sample 2 — target: CCNB3, cyclin fold, Cln2 fusion (human); technique: yeast growth competition, sequencing; medium: yeast; notes: strong parent motif; reference: not given; direction: higher = stronger binding; starting sequence: viral docking peptide; CKVKRKLFGSENI
| Variant | normalised enrichment score |
| --- | --- |
| CKVKRALFGSENI [K6A] | 0.559 |
| CKVKRKAFGSENI [L7A] | 0.399 |
| CKVKRKLFASENI [G9A] | 1.42 |
| CKVKRKLAGSENI [F8A] | -0.137 |
| AKVKRKLFGSENI [C1A] | 1.14 |

Sample 3 — target: tungstate, free oxyanion; technique: microfluidic competitive inhibition; medium: in vitro, cell-free expressed; tested at: not given; direction: lower = stronger binding
Notes: derived from inhibition constants, unchanged parent 2230 nM
Starting sequence: PafA, mature enzyme, eGFP fusion (Elizabethkingia meningoseptica, UniProt Q9KJX5); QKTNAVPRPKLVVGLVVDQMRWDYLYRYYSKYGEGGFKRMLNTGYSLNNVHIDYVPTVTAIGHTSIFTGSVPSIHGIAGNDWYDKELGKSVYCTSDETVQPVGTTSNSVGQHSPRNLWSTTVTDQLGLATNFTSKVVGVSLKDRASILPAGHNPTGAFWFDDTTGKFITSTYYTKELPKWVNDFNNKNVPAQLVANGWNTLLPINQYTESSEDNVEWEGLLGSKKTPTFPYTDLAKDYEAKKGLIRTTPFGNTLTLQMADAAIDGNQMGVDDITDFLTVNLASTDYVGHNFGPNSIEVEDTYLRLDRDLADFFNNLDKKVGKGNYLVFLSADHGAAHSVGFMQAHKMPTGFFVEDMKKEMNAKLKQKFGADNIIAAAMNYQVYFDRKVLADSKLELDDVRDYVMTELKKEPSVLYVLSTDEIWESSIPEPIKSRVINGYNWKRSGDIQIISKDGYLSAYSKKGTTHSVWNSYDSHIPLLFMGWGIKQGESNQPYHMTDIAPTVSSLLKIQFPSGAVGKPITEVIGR
| Variant | oxyanion analog dissociation constant |
| --- | --- |
| G88V | 2250 nM |
| I204V | 2310 nM |
| V503A | 1780 nM |
| F291G | 1840 nM |
| N315V | 1980 nM |
| Y494G | 1420 nM |
| I147V | 2350 nM |
| A191V | 2190 nM |

Other studies, line by line
| Compound | cell line | test | system | setting | how to read | measurement | result |
| --- | --- | --- | --- | --- | --- | --- | --- |
| Nc1ccn([C@@H]2O[C@H](CO)[C@@H](O)C2(F)F)c(=O)n1 | HEK-293T | pseudovirus infection, FDA-approved drug library counter-screen | VSV pseudotyped with VSV-G | 10 µM, 16 h | reference: vehicle-treated | GFP-positive cells | 98.2% |

Some of these lines once more (sample 1):
| Sequence | enrichment fold change |
| --- | --- |
| IHAGLEPKYQISYTY | 3.23 |
